Results gathered from unrelated publications.
A part holds a random share of what one study measured. Positions count from the first letter of the parent shown.

Series 1 — method: universal PBM; form: double-stranded DNA, one strand shown; sample: in vitro; tested at: not given; direction: higher = stronger binding
Target: Sal-like protein 4, full length isoform B (SALL4, Homo sapiens, UniProt Q9UJQ4-2, residues 1-616)
Setting: 8-mer, flanks averaged, mean of replicates
Construct (chain): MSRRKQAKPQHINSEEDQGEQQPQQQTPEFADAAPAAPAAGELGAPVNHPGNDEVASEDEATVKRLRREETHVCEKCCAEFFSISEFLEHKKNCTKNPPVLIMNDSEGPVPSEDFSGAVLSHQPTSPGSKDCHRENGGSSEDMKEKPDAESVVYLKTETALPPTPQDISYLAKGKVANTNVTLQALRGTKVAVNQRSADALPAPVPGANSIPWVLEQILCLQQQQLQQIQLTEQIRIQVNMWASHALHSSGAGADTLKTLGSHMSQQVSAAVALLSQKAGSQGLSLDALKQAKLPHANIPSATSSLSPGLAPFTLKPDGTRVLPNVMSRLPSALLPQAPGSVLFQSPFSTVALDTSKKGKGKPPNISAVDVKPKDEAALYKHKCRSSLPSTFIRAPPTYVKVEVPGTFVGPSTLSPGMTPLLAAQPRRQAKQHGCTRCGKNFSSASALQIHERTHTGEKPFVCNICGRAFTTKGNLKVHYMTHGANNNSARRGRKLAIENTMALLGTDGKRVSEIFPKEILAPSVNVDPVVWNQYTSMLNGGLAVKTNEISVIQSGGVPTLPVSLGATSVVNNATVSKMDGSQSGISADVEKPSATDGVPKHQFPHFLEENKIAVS
The E-score of `ACACCAAG` is reported as 0.0842.
With `CCGGATTC` the E-score was -0.241.
`AGATCGAG` has an E-score of -0.025.
For `AAAGTTTA`, the E-score was 0.269.
`TCTATCCA` has an E-score of 0.0755.
The E-score of `GGTTGACA` is reported as -0.0198.

Series 2 — method: protein binding microarray; form: double-stranded DNA, one strand shown; sample: in vitro; tested at: not given; relative to: not given; direction: higher = stronger binding
Target: Histone acetyltransferase KAT6A, winged helix 1, GST fusion (KAT6A, Homo sapiens, UniProt Q92794, residues 1-85)
Setting: 8-mer, flanks averaged, mean of 2 arrays, mostly near background
Construct (chain): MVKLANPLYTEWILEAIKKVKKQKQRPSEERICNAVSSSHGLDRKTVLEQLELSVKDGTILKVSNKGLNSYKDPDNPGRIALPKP
`TCCGCCGA` has an E-score of 0.391.
With `ATAATGCA` the E-score was -0.0703.
With `GTTCACTA` the E-score was -0.0341.
`CCGGTCCC` has an E-score of 0.328.
For `CCAGCGGC`, the E-score was 0.289.
`ATCGCGGC` gave an E-score of 0.427.
`CGGCGAGA` gave an E-score of 0.312.
The E-score of `CAATTTCG` is reported as -0.072.

Series 3 — target: CCNE2, cyclin fold, Cln2 fusion (human); method: yeast growth competition, sequencing; sample: yeast; setting: weak parent motif; relative to: not given; direction: higher = stronger binding
Starting sequence: CDC6 docking peptide (human); TLKGRRLVFDNQL; partner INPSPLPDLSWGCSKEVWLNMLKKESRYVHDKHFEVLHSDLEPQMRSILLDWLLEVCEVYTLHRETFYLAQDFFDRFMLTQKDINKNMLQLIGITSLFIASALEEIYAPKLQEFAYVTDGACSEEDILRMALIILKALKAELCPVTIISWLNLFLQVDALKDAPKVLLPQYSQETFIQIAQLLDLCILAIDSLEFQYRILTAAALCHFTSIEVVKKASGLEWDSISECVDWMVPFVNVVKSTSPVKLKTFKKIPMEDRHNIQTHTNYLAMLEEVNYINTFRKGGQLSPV
`D10Q`: “normalised enrichment score” 0.0184.
For `L7I`, “normalised enrichment score” read 0.0385.
For `D10A`, “normalised enrichment score” read -0.0931.
For `R6E`, “normalised enrichment score” read -1.
For `D10Y`, “normalised enrichment score” read 1.02.

Further values, each from its own experiment
`PhoQ, residues 284 288 289 292 302 303 ALSMDL` gave a fold induction of 8.35 (PhoP, residues 12 14 15 18 19 LWHVM (Escherichia coli, UniProt P23836); Sort-seq, refers to: YFP reporter; E. coli; PhoQ-PhoP variant library, with: 10 µM Mg2+; relative to: high Mg2+ state, higher = stronger signaling).

For quick reference, copied from above (series 2):
With `GTTCACTA` the E-score was -0.0341.
`CCGGTCCC` has an E-score of 0.328.
